Results gathered from unrelated publications.
Parts stem from different laboratories: compare values within a part only. Positions count from the first letter of the parent shown.
Chain of UniProt Q13464 (whole entry, looked up): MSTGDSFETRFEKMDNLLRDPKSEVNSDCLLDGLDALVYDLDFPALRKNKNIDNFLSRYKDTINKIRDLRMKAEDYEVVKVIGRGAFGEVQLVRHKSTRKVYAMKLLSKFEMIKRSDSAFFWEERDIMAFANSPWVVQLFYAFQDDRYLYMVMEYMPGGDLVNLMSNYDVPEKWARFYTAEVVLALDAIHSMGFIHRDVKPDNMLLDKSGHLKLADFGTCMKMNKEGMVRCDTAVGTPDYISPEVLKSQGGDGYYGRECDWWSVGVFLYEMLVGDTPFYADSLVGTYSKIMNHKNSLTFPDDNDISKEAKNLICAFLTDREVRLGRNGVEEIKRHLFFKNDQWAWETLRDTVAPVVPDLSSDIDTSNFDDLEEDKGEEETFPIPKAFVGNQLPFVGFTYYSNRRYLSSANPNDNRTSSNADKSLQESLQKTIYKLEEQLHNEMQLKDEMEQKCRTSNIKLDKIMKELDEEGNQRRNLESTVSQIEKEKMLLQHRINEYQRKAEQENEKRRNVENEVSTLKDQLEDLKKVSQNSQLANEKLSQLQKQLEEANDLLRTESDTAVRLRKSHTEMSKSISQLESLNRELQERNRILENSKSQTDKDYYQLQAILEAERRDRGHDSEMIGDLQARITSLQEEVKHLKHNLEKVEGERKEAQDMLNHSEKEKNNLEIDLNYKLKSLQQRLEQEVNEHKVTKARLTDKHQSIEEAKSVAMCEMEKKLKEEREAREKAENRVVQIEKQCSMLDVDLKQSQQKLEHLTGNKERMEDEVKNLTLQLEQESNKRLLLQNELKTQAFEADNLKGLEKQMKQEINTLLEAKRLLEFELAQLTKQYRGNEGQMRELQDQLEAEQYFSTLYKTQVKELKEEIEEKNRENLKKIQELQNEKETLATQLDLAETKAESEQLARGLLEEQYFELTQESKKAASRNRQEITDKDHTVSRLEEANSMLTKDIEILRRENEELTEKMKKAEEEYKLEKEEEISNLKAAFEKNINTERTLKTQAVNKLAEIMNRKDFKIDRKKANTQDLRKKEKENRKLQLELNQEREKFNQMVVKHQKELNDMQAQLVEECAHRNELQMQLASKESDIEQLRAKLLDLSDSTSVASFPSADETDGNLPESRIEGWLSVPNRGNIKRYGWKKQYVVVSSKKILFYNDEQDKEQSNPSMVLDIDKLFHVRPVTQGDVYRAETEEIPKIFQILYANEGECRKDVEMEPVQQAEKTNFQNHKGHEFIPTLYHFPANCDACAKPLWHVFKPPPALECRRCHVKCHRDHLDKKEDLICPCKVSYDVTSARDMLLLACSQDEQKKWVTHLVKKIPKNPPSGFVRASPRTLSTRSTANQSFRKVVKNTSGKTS
Chain of UniProt P27361 (whole entry, looked up): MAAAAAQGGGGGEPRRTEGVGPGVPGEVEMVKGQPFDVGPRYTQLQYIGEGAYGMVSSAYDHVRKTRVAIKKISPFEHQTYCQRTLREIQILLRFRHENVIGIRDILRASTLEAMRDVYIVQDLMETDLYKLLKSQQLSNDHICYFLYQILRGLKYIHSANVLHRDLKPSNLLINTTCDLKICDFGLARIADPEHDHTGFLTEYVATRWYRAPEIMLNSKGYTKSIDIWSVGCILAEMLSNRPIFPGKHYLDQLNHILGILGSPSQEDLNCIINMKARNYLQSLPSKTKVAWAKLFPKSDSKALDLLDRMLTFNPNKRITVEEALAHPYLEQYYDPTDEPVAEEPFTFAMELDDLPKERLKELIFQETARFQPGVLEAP
Chain of UniProt P22607 (whole entry, looked up): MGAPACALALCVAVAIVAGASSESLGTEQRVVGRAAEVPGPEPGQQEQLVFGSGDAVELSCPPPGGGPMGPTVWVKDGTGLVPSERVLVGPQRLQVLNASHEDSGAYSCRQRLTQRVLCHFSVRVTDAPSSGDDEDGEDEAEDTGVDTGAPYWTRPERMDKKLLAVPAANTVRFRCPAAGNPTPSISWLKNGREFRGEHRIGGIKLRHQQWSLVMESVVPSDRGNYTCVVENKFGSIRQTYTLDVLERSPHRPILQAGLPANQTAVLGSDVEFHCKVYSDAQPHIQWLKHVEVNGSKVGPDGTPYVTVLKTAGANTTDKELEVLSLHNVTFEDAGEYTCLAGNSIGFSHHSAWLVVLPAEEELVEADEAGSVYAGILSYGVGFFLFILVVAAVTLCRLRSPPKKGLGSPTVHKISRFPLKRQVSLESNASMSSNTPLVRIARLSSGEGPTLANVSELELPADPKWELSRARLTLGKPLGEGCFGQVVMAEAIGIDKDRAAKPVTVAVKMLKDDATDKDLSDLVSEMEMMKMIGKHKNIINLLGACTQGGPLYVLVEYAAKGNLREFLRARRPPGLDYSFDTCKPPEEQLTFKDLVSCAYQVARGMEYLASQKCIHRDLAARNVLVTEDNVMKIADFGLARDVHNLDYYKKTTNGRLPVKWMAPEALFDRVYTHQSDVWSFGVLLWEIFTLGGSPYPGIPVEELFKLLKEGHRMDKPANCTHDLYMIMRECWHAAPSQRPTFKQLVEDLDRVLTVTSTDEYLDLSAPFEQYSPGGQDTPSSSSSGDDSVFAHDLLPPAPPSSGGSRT
Chain of UniProt Q9Y2I7 (whole entry, looked up): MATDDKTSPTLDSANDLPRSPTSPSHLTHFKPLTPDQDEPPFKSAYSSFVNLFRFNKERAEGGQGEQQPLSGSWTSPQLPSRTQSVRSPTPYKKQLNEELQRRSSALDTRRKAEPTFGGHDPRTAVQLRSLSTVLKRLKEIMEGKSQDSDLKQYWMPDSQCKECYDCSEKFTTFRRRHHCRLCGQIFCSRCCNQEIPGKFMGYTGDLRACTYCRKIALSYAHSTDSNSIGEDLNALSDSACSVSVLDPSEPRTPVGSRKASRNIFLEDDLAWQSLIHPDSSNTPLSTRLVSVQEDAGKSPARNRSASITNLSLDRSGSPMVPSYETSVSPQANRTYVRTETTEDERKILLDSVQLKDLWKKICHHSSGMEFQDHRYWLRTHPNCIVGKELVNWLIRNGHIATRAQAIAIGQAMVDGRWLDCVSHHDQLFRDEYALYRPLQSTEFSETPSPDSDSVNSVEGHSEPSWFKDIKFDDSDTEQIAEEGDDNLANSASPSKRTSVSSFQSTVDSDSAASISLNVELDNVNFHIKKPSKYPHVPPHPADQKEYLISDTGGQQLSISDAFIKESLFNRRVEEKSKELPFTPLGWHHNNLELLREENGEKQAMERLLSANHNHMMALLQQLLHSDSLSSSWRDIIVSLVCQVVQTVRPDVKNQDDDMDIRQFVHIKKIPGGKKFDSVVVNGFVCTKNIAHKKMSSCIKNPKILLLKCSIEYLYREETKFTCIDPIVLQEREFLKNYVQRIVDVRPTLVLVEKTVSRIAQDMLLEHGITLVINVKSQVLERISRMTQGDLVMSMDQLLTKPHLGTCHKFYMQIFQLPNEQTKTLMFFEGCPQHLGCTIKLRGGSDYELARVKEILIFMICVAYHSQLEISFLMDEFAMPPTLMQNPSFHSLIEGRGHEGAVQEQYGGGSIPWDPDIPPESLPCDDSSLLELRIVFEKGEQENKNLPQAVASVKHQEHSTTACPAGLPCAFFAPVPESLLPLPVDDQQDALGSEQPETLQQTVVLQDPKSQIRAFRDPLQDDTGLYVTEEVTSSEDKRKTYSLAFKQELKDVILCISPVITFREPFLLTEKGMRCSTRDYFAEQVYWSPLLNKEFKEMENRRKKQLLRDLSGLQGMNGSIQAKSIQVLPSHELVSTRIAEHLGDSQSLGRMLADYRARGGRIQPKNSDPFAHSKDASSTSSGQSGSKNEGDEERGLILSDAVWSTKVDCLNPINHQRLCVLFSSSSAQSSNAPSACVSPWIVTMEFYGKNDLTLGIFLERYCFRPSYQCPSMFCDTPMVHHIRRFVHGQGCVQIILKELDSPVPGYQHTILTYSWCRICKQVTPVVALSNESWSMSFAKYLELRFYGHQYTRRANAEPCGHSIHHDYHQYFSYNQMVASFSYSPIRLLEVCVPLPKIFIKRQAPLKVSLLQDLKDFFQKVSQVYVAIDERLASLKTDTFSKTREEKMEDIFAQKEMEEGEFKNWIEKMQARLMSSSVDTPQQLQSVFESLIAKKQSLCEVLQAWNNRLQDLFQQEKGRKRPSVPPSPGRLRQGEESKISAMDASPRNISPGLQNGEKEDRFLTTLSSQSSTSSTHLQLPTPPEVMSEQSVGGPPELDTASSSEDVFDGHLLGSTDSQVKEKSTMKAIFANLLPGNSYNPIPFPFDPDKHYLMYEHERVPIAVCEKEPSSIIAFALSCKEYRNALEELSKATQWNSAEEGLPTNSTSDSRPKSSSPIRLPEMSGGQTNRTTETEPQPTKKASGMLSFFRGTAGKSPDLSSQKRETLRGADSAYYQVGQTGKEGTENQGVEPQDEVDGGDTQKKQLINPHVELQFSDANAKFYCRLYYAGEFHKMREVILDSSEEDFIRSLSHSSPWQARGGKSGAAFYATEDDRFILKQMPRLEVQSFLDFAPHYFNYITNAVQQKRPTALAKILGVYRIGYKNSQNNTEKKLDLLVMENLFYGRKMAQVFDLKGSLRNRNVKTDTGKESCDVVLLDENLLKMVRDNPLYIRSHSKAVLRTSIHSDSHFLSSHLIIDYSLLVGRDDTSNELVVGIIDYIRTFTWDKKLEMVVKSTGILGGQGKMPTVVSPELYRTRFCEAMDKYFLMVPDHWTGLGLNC
Chain of UniProt P49759 (whole entry, looked up): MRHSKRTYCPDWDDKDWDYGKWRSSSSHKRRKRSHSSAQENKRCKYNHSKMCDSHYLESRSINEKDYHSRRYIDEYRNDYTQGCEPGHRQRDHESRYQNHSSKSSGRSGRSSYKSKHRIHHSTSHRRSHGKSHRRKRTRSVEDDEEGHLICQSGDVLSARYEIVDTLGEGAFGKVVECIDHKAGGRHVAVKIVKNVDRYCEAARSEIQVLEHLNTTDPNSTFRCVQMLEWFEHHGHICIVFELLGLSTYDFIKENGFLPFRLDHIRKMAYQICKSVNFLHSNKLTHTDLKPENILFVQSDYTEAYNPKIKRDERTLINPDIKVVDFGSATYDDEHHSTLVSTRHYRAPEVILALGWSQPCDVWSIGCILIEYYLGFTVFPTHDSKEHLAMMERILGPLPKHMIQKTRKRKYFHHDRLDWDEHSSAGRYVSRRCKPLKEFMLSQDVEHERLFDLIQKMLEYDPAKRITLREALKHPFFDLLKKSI

Study 1
Target: Fragile X messenger ribonucleoprotein 1, C-terminal low-complexity region (Fmr1, Mus musculus, UniProt P35922)
Technique: RNA Bind-n-Seq
Form: RNA
Medium: in vitro
Concentration: 200 nM
Setting: whole 134-nt RNA, ends assumed
With: 150 mM LiCl
Relative to: input library
Direction: higher = stronger binding
All molecules: 7-deaza-guanosine replaces G
Constant ends, left off below: GGGAGUUCUACAGUCCGACGAUC … UGGAAUUCUCGGGUGUCAAGG
Sequence	log2 enrichment
CUGUGCUACACAUCGUAUGUACCGAAUCGGAAAAAAAGGGGAAAAAAAGGGGAAAAAAAGGGAAAGUAUUAUGUUACGCCGUUCGGAUCU	0.251
GCAGGAAGUAAAAACAAAUGGAAAUGCUUCGUAUAGUGGCAGGGGUGGGGGUUGCUAAGGAAAGGGUGGGAUGGGAGUGGGUAAAGAGUU	1.4
GUCCUGUGCUACACAUCGUAUGUACCGAAUCGGCCCCCCGGCCCCCCGGGGCCCCCCGGAAAGUAUUAUGUUACGCCGUUCGGAUCUGCA	0.603
UGGCCCUGGUGGCAUGCGGGGAGGAAGAGGUGGCCUCAUGGAUCGUGGUGGUCCCGGUGGAAUGUACAGAGGUGGCCGUGGUGGAGACAG	-0.625
UGGGAGGUGGAUUUUGUUUAUUUUUUUACCUCAUUUCCAGGGGUGGGAAUUUUUUUUUAAUAUGUGUCAUGAAUAAAGUUGUUUUUGAAA	-0.516
UAACUUUAGAGGAGGAUCUGAUGGAUAUGGCAGUGGACGUGGAUUUGGCGAUGGCUAUAAUGGGUAUGGAGGAGGACCUGGAGGUGGCAA	0.21
UGGCCCUGGUGGCAUGCGGGGAGGAAGAGGUGGCCUCCUGGAUCGUGGUGGUCCCGGUGGAAUGUUCAGAGGUGGCCGUGGUGGAGACAG	-0.0745
AGUCCUGUGCUACACAUCGUAUGUACCGAAUCGGGAAAAAGGGAAAGGGUUUUUGGGAAAGUAUUAUGUUACGCCGUUCGGAUCUGCACU	-2.17

Study 2
Target: CCND3, cyclin fold, Cln2 fusion (human)
Technique: yeast growth competition, sequencing
Medium: yeast
Setting: weak parent motif
Relative to: not given
Direction: higher = stronger binding
Starting sequence: PKMYT1 docking peptide (human); SFEPRNLLSLFED; partner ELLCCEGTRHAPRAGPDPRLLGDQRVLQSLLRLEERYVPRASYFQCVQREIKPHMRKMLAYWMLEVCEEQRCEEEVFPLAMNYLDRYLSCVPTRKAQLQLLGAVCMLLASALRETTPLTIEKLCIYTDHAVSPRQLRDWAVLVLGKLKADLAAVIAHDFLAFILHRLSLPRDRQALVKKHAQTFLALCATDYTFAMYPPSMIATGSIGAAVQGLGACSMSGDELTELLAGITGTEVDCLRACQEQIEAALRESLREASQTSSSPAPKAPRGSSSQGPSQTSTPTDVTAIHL
Variant	normalised enrichment score
SFEPRNDLSLFED [L7D]	0.146
SLEPRNLLSLFED [F2L]	0.0871
SFEPRHLLSLFED [N6H]	0.087
SFEPRNLLHLFED [S9H]	0.113
SFEPRNLLSLFEY [D13Y]	0.0557
FFEPRNLLSLFED [S1F]	0.129
SFEPRGLLSLFED [N6G]	0.173
SFEPRNLCSLFED [L8C]	0.124

Study 3
SMILES: O=C(Nc1cnc(Oc2ccc(F)cc2)nc1)N1CCc2ncccc2[C@@H]1c1ccc(F)cc1
Observed: cell-free assay
Technique: competition with immobilised ligand
Concentration: 1 µM
target	remaining binding
Tyrosine-protein kinase ABL1, phosphorylated (ABL1, Homo sapiens, UniProt P00519, M351T)	57%
Dual specificity protein kinase CLK4 (CLK4, Homo sapiens, UniProt Q9HAZ1)	100%
Rho-associated protein kinase 1 (ROCK1, Homo sapiens, UniProt Q13464)	100%
1-phosphatidylinositol 3-phosphate 5-kinase (PIKFYVE, Homo sapiens, UniProt Q9Y2I7)	63%
Dual specificity protein kinase CLK1 (CLK1, Homo sapiens, UniProt P49759)	80%
Fibroblast growth factor receptor 2 (FGFR2, Homo sapiens, UniProt P21802)	98%
Uncharacterized serine/threonine-protein kinase SBK3 (SBK3, Homo sapiens, UniProt P0C264)	90%

Study 4
SMILES: O=Nc1c(-c2c(O)[nH]c3cc(Br)ccc23)[nH]c2ccccc12
Observed: enzyme activity
Action: inhibitor
Concentration: 0.5 µM
Relative to: control
target	remaining activity
Macrophage-stimulating protein receptor (MST1R, Homo sapiens, UniProt Q04912)	98.7%
Casein kinase I isoform gamma-3 (CSNK1G3, Homo sapiens, UniProt Q9Y6M4)	78.3%
Serine/threonine-protein kinase A-Raf (ARAF, Homo sapiens, UniProt P10398)	99.8%
Serine/threonine-protein kinase Nek6 (NEK6, Homo sapiens, UniProt Q9HC98)	99.9%
Wee1-like protein kinase (WEE1, Homo sapiens, UniProt P30291)	96%
Mitogen-activated protein kinase 3 (MAPK3, Homo sapiens, UniProt P27361)	83.3%
Tyrosine-protein kinase JAK3 (JAK3, Homo sapiens, UniProt P52333)	53.3%
Tyrosine-protein kinase Mer (MERTK, Homo sapiens, UniProt Q12866)	79.4%
Serine/threonine-protein kinase ULK2 (ULK2, Homo sapiens, UniProt Q8IYT8)	94%
Serine/threonine-protein kinase TBK1 (TBK1, Homo sapiens, UniProt Q9UHD2)	62.1%
Fibroblast growth factor receptor 3 (FGFR3, Homo sapiens, UniProt P22607)	54.6%
Fibroblast growth factor receptor 1 (FGFR1, Homo sapiens, UniProt P11362)	45.1%
Serine/threonine-protein kinase Nek1 (NEK1, Homo sapiens, UniProt Q96PY6)	93.8%
Activin receptor type-1B (ACVR1B, Homo sapiens, UniProt P36896)	100%

Excerpt of the above (study 3):
target	remaining binding
Tyrosine-protein kinase ABL1, phosphorylated (ABL1, Homo sapiens, UniProt P00519, M351T)	57%
Dual specificity protein kinase CLK4 (CLK4, Homo sapiens, UniProt Q9HAZ1)	100%
Dual specificity protein kinase CLK1 (CLK1, Homo sapiens, UniProt P49759)	80%
